Results gathered from unrelated publications.
Numbered parts are unrelated; each lists some results of a single study. Changes are numbered by the printed parent chain.

Study 1 — method: RNA Bind-n-Seq; form: RNA; sample: in vitro; tested at: not given; reference: input RNA pool; direction: higher = stronger binding
Target: RING finger protein unkempt homolog, zinc fingers 1-6, GST-SBP tag (UNK, Homo sapiens, UniProt Q9C0B0, residues 30-357)
Chain of UniProt Q9C0B0 (30-357, looked up): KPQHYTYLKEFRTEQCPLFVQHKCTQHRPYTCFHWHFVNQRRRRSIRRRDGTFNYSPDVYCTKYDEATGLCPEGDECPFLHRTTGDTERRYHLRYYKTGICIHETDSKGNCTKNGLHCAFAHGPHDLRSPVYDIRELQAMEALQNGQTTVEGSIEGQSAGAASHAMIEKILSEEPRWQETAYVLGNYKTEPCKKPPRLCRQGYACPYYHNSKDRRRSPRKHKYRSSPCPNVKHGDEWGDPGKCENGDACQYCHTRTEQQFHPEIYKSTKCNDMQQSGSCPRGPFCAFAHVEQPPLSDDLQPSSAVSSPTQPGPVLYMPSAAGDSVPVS
Notes: RNA with constant flanks, human-mouse chimeric sites, ends assumed
`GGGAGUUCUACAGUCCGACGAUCAUGGAACAUUUCGAUGCGUCACUCAGUACCUAUUUCAAGGCAUUGCUGGGCCCCCGAGAUACUAGAGUCAAAGGAUGGUUCCUCCUGGACAAUUACAUCCCUACGUUUGUCUGUUCUGUUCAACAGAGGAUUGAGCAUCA` has a bound/input enrichment of 0.155 ratio.
For `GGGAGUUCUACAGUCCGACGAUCCUGAGGAUACCACUGAAAGAGACAUUAAAGAAUCAUUUGAGGGCUCUGUUCGUGCAAGAAUAGUCACCUGACCGGGAACUGGUUCUUCCAAAGGGUUUGGUUUUGUAGACUUUAAUAGUGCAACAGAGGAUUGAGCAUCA`, the bound/input enrichment was 0.994 ratio.
For `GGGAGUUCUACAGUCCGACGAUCUUUGUAUUUAUGCUAAGCACACGUGCUGGUGGUCUGGGCAUCAAUCUUGCGACUGCUGAUGUAGUCAUUUUAUAUGACUCAGAUUGGAAUCCCCAAGUUGAUCUUCAGGCUAUGGACCGUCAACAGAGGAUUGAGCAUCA`, the bound/input enrichment was 0.145 ratio.
With `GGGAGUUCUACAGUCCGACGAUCCAGACUGUGUCAUACUUUUUAGACAUUCACAUCAGACUUACAGAGCACCUGGCCACAUUCUAGUUUUGUGUUAUUUCUCAGCUAUGGAUAUGAUCAAAUGAGAACACUGCUUAACUAAUGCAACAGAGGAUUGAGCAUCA` the bound/input enrichment was 0.64 ratio.
With `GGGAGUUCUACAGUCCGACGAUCGAGUCGAUUAUGGAAACAACAAUUCGUUAUCUUGCAGCCUCAGUGUUUUUACUUGCCGCGAUAGCAUUGGGGUUUUAUAGGUUCUGGAAGGAGAACUGACGAUGAUGCUGCCGCUGCUGCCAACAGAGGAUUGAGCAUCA` the bound/input enrichment was 0.247 ratio.
For `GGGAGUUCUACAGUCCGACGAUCGAAACAUUUAAAUUUAAAGAAGCUGUUGUUCUAGGAAGUACGGACUUUCUAGAAGAUGAUAUAGAAAAAAUUGUAGAAGAACUGGGGAAAGAGUAUAAGGGCAACGCUUAUCAUUUAAUGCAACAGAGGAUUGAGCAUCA`, the bound/input enrichment was 3.01 ratio.
`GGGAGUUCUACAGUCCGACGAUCGCUCCUCCCCGCUCUGCAGCCUGGGGACACUGGGCUGGGACCAGAAUCCAGCUUUCUUUUAAUAGUGUCAGUGUAACUGUAUCCCGUGACAUUUCAUUUUUUUUUUAUAGUGUAUUUUUUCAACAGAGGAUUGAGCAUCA` has a bound/input enrichment of 36.4 ratio.
`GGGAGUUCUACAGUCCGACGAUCAUUGUUGAAGCGAAUCCACUCCUAGAAGCCUUUGGAAAUGCAAAGACUGUUCGCAACAAUAAUAGCAGUCGAUUUGGAAAAUUUGUAGAAAUUCAUUUCAAUGAAAAGAGUUCGGUUGUUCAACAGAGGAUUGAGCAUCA` has a bound/input enrichment of 0.355 ratio.
`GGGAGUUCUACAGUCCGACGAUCCCUGCUCAGAUCACCAUGAAAGUAAUCCAAGGCCUAUAUAGUGGGGUCACCACAGUGGAACUGGACACCCUGGCUGCUGAGACAGCCGCAACCUUGACCACGAAGCACCCUGACUAUGCCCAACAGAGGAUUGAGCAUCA` gave a bound/input enrichment of 0.162 ratio.
The bound/input enrichment of `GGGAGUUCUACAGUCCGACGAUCUUUGUUUUUGUAACUUAUCUGUAAAAGUCCCCCCCCCUACUGUCAAAAAAUAUGCAUGUAUAGUAAUUAGGACUUCAUUCCUCCAUGUUUUCUUCCCUUAUCUUACUGUCAUUGUCCUUACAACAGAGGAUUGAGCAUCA` is reported as 1.84 ratio.
With `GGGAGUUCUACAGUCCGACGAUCAAAGUGAUGACUAUGUUUGUCCAACGACAGGUAUUUUCGGAGAGCAAAGAUGAGAUUGCGUUAGUCCUGUUUGGUACAGAUGGCACUGAUAAUGCCCUUGCUGGCAAGGACCAGUAUCAGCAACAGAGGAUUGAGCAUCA` the bound/input enrichment was 0.126 ratio.

Study 2 — method: RNA Bind-n-Seq; form: RNA; sample: in vitro; tested at: 365 nM; reference: no-protein control; direction: higher = stronger binding
Target: RNA binding protein fox-1 homolog 2, RRM domain, GST-SBP tag (RBFOX2, Homo sapiens, UniProt O43251-10, residues 100-194)
Notes: natural RNA segment, single round, ends assumed
Construct (chain): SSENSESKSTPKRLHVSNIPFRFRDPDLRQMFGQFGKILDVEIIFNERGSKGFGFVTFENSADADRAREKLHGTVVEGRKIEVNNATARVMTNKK
`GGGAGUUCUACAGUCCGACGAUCCAAACCUGGUUACUCAACGUUAGCAGUGAAGCGAGCCGGUGGUGACUGUGGCUGGAAUGUGGUGGGCUUGGUGACUUUUCUUUCUGCCCUCCCUUGAGUGCUCACCCUCCUGGAAUUCUCGGGUGCCAA`: “RBNS enrichment (R)” 0.376.
Under “RBNS enrichment (R)”, `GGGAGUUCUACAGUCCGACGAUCAUUUCUUUUAUCUCCAUCUACUUUUUUAUAAACUGAUAUCUAUGUGUCAGAAAUGUACAAUUUUAGGGUAUGUUUAGAUUAAAUAUUUUUUAUUUUUAAGUUACCAGGCAUGGAAUUCUCGGGUGCCAA` is recorded as 0.948.
`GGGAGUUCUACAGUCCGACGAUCACGGGGGCCGCGUGGUGCCAUCCCCAGGGGGCAUGACCAGAUGCGUCCCAAGAUGUUGAUUUUUACUGUGUUUUAUAAAAUAGAGUGUAGUUUACAGAAAAAGACUUUAAUGGAAUUCUCGGGUGCCAA` — result for “RBNS enrichment (R)”: 0.526.
Under “RBNS enrichment (R)”, `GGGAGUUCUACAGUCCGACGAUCGAACUUGUAGCUUGGACUUUAAGGUAGCAUGGCUCUAUUGCUGUCAAUUUACUGUUUCACUGCACAGCAAUCACAGCCAGUGAAUGUUACACACAUCUUGCUAGACUAGUUGGAAUUCUCGGGUGCCAA` is recorded as 0.51.
Under “RBNS enrichment (R)”, `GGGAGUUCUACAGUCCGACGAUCCUUUGUGACUGUUUGCUAGUGACGCAACUAUUGGUUUUUUGUCAACUGGGCAAUAUGGGUAAAAUUUCCUUUUUUCCCUAAGAAUGAGGUCUUCCAUGUUUGAGGAAAUGUGGAAUUCUCGGGUGCCAA` is recorded as 1.01.
Under “RBNS enrichment (R)”, `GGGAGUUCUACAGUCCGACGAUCUCUCUCUGCCCACUCGGGUCUGCAGACCUGGUUCCCACUGAGGCCCUUUGCAGGAUGGAACUACGGGGCUUACAGGAGCUUUUGUGUGCCUGGUAGAAACUAUUUCUGUUUGGAAUUCUCGGGUGCCAA` is recorded as 0.277.
Under “RBNS enrichment (R)”, `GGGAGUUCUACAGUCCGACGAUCACUGUCACGAGAAUAGCACGGGAAAGACUGGCCCCCAUGAUUCAAUUACCUCCCCCUGGGUCUGUCCCACAACACGUGGGAAUUCUGGGAGAUACAAUUCAAGUUGAGAUUGGAAUUCUCGGGUGCCAA` is recorded as 1.44.
Under “RBNS enrichment (R)”, `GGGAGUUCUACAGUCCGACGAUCGCAUCUAUGCUCUGUUACAAGUGCCUUAGCAGGAGUCAGCAGCACCCUCCAGGUGCCCCUUGCCACACUGAAUGUGGGAAAGUGUGCUGUGGCUACUUCGUGGUCAGAGUUGGAAUUCUCGGGUGCCAA` is recorded as 0.318.
For `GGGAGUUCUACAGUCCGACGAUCUUCUAGCCAAAGAUGAUAAAGGGGGAAAUGGUUUUUAGUGCGUAUAUUAUACUGCCUCUUAGGUGUACUCUUUAUAAGCUGGUAAACCAAGAAUCUAGGGAGUGGCCAAAUGGAAUUCUCGGGUGCCAA`, “RBNS enrichment (R)” read 0.531.
Under “RBNS enrichment (R)”, `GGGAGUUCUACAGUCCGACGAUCCCAGAAGUAGCAGAACCCUAGCUCUGUUUGUGUGACAUAGUAGGGUAUUAGACUAUGAGGUUGUGGUCUGGUAAGUCACUCAGCUGGCUCUGUUCAAAUGCAUUGAGAGAUGGAAUUCUCGGGUGCCAA` is recorded as 0.492.
`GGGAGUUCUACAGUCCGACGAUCUUUUUAAACUUGGUAGAAAUGUCGGCAGCUGCUCUACACACAACUUCACUCAAGGCUUUGUUUCCAGAGGCCAGCUAGGCUGUCACAGGCAGGAAUCCCUUCCCAUCUGCUGGAAUUCUCGGGUGCCAA` — result for “RBNS enrichment (R)”: 0.605.
Under “RBNS enrichment (R)”, `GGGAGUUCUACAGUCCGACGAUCGAAGAUUUAUUUAAUUUGAUAUGUUCUUGUACUGCAUUUUGAUCAGUUGAGCUUUUAAAAUAUUAUUUAUAGACAAUAGAAGUAUUUCUGAACAUAUCAAAUAUAAAUUUUGGAAUUCUCGGGUGCCAA` is recorded as 2.54.

Study 3 — target: CCND2, cyclin fold, Cln2 fusion (human); method: yeast growth competition, sequencing; sample: yeast; notes: weak parent motif; reference: not given; direction: higher = stronger binding
Parent: CCP110 docking peptide (human); EKVKRRLDLDIDG
Under “normalised enrichment score”, `L7A` is recorded as -0.126.
For `K2A`, “normalised enrichment score” read 0.0987.
`L9A`: “normalised enrichment score” 0.000846.
For `D10A`, “normalised enrichment score” read 0.588.
`I11A` — result for “normalised enrichment score”: 0.174.
Under “normalised enrichment score”, `G13A` is recorded as 0.286.
`R5K L9F`: “normalised enrichment score” 0.281.

Mixed results
The fold induction of `PhoQ, residues 284 288 289 292 302 303 SSLVEF` is reported as 4.46 (PhoP, residues 12 14 15 18 19 QWHVF (Escherichia coli, UniProt P23836); Sort-seq, refers to: YFP reporter; E. coli; PhoQ-PhoP variant library, added: 10 µM Mg2+; reference: high Mg2+ state, higher = stronger signaling).

Some of these lines once more (mixed results):
The fold induction of `PhoQ, residues 284 288 289 292 302 303 SSLVEF` is reported as 4.46 (PhoP, residues 12 14 15 18 19 QWHVF (Escherichia coli, UniProt P23836); Sort-seq, refers to: YFP reporter; E. coli; PhoQ-PhoP variant library, added: 10 µM Mg2+; reference: high Mg2+ state, higher = stronger signaling).
